# Measurements gathered from unrelated publications.
# Protocols differ between the studies behind these lines. Numbers after ± are the reported error.
# UCHL1: Ubiquitin carboxyl-terminal hydrolase isozyme L1 (UCHL1, Homo sapiens, UniProt P09936)
# Sequence of UniProt P09936 (whole entry, looked up): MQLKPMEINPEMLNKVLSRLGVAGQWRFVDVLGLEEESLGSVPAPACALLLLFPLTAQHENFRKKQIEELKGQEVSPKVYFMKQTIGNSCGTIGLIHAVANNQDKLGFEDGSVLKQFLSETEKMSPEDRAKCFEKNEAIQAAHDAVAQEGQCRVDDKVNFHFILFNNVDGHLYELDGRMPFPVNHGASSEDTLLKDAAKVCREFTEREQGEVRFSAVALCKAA
# Sequence of UniProt Q96PY6 (whole entry, looked up): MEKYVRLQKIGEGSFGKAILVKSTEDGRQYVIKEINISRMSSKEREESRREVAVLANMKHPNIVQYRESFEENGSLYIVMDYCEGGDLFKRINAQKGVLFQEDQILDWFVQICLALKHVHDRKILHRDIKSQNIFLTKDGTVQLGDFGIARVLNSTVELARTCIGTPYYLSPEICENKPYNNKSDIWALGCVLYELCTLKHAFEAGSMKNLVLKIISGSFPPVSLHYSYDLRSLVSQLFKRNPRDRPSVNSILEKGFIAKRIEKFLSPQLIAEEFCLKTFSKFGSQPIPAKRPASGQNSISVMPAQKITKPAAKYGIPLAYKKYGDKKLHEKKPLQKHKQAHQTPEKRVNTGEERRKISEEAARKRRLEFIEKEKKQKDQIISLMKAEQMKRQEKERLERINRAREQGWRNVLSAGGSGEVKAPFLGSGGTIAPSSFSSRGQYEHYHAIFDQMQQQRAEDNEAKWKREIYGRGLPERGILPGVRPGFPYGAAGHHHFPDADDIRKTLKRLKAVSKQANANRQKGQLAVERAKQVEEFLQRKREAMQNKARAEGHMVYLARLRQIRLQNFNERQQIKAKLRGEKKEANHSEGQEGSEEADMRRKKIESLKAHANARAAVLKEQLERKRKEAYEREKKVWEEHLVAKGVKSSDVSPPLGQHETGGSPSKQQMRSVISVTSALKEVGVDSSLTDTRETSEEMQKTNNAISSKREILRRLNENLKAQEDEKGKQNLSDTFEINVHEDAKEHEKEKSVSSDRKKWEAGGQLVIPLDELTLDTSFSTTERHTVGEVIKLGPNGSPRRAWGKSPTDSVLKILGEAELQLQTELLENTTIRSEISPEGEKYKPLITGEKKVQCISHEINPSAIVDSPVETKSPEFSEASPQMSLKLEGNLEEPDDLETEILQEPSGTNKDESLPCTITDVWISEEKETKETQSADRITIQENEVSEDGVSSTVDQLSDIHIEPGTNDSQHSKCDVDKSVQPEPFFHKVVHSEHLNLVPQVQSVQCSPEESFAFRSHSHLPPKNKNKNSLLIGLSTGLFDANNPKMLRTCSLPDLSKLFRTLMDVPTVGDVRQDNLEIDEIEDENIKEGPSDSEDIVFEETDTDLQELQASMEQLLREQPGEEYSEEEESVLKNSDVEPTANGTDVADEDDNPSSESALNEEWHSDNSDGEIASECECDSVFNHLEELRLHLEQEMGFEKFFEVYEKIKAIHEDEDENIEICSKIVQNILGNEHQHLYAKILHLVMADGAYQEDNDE
# Sequence of UniProt P32246 (whole entry, looked up): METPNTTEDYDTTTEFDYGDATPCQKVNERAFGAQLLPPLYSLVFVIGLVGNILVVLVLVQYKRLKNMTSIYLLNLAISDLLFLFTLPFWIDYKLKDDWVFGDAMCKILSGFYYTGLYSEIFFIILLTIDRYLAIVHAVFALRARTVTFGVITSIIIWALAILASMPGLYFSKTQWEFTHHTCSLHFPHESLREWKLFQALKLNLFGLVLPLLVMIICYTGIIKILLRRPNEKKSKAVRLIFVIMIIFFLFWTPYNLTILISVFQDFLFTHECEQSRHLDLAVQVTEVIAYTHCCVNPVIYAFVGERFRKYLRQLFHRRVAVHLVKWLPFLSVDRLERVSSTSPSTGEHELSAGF
# Sequence of UniProt P04756 (whole entry, looked up): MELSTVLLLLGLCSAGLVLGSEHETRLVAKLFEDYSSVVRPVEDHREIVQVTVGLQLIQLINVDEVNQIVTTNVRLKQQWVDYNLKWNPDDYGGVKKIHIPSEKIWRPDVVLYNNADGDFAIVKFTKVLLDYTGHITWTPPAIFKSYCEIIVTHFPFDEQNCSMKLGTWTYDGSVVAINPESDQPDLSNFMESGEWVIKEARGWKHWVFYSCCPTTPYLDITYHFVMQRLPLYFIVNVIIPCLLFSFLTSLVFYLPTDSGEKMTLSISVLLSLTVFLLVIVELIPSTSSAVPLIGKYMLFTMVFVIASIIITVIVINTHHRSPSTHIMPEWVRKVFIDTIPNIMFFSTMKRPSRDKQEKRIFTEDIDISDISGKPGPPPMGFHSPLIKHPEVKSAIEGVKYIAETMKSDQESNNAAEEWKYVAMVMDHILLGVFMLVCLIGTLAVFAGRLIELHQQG
# Sequence of UniProt P21553 (whole entry, unmodified, looked up): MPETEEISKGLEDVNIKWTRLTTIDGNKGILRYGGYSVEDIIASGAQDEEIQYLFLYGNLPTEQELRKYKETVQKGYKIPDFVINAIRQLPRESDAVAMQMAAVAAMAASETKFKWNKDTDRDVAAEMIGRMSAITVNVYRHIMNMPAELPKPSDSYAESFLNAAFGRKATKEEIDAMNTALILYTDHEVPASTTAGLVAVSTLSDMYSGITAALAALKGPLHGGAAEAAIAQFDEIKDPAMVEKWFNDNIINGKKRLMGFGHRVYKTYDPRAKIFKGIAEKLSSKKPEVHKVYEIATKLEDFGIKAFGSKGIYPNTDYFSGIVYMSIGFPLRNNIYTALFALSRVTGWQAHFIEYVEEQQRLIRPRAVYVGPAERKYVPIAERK
# Sequence of UniProt Q06520 (whole entry, looked up): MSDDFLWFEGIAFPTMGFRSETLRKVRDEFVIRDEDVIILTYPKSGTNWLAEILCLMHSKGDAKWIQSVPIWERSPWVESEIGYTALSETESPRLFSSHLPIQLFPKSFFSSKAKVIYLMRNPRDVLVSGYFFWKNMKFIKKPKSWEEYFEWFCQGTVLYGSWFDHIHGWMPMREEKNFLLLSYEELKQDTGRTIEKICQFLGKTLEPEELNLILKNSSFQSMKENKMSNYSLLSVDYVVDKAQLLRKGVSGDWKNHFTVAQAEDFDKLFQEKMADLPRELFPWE
# Sequence of UniProt O14976 (whole entry, looked up): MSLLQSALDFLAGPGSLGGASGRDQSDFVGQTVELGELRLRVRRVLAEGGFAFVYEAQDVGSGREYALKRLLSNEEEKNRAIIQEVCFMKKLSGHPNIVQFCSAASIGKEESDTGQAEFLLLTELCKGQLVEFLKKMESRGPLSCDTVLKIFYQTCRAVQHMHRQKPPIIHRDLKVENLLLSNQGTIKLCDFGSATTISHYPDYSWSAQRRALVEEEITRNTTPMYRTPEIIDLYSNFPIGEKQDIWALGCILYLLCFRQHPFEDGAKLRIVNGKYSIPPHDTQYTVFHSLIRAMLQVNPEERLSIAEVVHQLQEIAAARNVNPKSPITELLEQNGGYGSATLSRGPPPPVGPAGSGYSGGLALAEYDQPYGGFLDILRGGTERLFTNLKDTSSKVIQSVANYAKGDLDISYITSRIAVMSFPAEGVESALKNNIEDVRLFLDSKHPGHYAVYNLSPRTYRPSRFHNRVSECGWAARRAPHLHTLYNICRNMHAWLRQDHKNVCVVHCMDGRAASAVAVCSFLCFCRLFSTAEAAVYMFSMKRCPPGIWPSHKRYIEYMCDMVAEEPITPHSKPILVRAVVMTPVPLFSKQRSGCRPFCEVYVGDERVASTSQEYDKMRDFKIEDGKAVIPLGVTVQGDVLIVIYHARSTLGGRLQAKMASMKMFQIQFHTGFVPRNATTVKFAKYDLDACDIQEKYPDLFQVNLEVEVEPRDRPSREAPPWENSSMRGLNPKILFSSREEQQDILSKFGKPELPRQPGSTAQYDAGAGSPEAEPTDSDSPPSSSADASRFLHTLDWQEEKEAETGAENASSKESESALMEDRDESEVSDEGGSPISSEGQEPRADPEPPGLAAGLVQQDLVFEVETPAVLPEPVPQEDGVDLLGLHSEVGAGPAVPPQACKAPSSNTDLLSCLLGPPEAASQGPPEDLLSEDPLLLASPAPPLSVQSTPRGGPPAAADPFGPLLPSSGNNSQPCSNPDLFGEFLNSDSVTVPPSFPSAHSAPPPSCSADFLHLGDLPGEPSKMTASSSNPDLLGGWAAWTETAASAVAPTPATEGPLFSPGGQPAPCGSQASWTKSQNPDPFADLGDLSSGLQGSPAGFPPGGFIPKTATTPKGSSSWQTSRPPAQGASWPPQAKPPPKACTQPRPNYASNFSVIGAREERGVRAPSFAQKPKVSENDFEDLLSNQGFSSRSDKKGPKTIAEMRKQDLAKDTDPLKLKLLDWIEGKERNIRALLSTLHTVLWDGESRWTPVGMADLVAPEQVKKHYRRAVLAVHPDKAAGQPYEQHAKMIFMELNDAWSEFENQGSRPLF
# Sequence of UniProt P09690 (whole entry, looked up): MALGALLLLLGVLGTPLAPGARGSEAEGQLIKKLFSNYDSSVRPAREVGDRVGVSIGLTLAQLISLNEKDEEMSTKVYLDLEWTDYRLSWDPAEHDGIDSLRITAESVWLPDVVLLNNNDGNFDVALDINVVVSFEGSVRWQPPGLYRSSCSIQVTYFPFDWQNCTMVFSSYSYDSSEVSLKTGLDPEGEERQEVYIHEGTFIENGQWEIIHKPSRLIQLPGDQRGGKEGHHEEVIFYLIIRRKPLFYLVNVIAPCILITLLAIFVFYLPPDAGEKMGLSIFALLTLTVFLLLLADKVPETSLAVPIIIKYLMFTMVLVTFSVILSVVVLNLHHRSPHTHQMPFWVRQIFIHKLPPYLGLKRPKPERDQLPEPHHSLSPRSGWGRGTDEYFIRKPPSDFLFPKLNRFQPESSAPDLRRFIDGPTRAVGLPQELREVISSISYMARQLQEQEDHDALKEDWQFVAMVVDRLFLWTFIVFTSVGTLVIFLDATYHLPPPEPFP
# Sequence of UniProt P00942 (whole entry, unmodified, looked up): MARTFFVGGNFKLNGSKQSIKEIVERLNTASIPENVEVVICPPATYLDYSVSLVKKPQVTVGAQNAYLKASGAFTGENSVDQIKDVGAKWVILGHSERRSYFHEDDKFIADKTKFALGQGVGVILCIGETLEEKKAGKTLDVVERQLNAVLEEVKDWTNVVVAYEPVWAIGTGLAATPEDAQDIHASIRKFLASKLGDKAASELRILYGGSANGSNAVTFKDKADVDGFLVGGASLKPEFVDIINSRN
Compound,target,assay,system,conditions,how to read,measurement,result
Nc1ncc(-c2nc(N3CCOCC3)nc(N3CCOCC3)n2)c(C(F)F)n1,"Cyclin-G-associated kinase (GAK, Homo sapiens, UniProt O14976)",KINOMEscan,,10 µM,,remaining binding,75%
CC[C@H](CO)Nc1nc(NCc2ccc(-c3ccccn3)cc2)c2ncn(C(C)C)c2n1,"Casein kinase I isoform delta (CSNK1D, Homo sapiens, UniProt P48730)",KINOMEscan competition binding,,"10 µM, primary screen",direction not given,binding score,3.2
Cc1ccc(C(=O)CCl)o1,UCHL1,"covalent, intact protein LC-MS",,12.5 µM,,labelling,2.63%
COc1ccc(F)cc1C(=O)NCc1ccc(-c2nn([C@@H](C)C(F)(F)F)c(N)c2C(N)=O)cc1,"Tyrosine-protein kinase Yes (YES1, Homo sapiens, UniProt P07947)",enzyme activity,,,baseline: YES1 over BTK,selectivity ratio,49.8
CC(=O)CCCNC(=O)CCNC(=O)[C@H](O)C(C)(C)COP(=O)(O)OP(=O)(O)OC[C@H]1O[C@@H](n2cnc3c(N)ncnc32)[C@H](O)[C@@H]1OP(=O)(O)O,"gltA, with oxaloacetate (Thermoplasma acidophilum, UniProt P21553, D318G)","complex formation, initial-velocity fluorescence kinetics",,"pH 8.0, 20 °C, together with: oxaloacetate 75 µM",,apparent binding constant,27 ± 3 µM
O=C(c1ccc(Cl)cc1)N1CCN2C(=O)N(OC(=O)N3CCOc4ccccc43)C(=O)C2C1 (stereo not shown),"Prolyl endopeptidase (PREP, Homo sapiens, UniProt P48147)",MS-based ABPP,SW-620 conditioned medium,"10 µM, 1 h, 37 °C","baseline: compound over DMSO, lower = more inhibition",mean protein ratio,1.04
COc1ncccc1-c1cnn2ccc(N3CCN(C(=O)OC(C)C)CC3)nc12,"Cyclin-dependent kinase 4, with cyclin D1 (CDK4, Homo sapiens, UniProt P11802)",KINOMEscan binding,,1 µM,baseline: untreated control,remaining binding,64%
Nc1ccccc1NC(=O)[C@@H]1CS[C@H]2CS[C@H](CS)N21,"sfhI (Serratia fonticola, UniProt Q9RMI1)",activity class,,concentration not given,,activity,inactive
C[C@H]1CN(c2n[nH]c3nc(N[C@H]4CC[C@H](NS(=O)(=O)CCC(F)(F)F)CC4)ncc23)CCO1,"Serine/threonine-protein kinase Nek1 (NEK1, Homo sapiens, UniProt Q96PY6)","inhibitor, Kinobeads competition profiling",,20 µM,baseline: vehicle,relative abundance,1.1
O=C(Nc1cccnn1)N1CCC(=Cc2cccc(Oc3ccc(C(F)(F)F)cn3)c2)CC1,"Talin-2 (Rattus norvegicus, UniProt A0A8I5Y6H9)",competitive ABPP with azido-FP probe,rat brain soluble fraction,"0.1 µM, unit not given",baseline: DMSO,probe labelling,-4.4
O=C(O)COP(=O)(O)O,"TPI1 (Saccharomyces cerevisiae, UniProt P00942, Y208F)","enzyme activity, competitive inhibitor, GPDH/NADH-coupled",,"pH 8.9, 25 °C, ionic strength 0.1 NaCl, together with: glyceraldehyde 3-phosphate substrate",baseline: mutant over wild type,Ki ratio,15
Oc1c(Cl)cc(-c2ccccc2)cc1Cl,"Sulfotransferase 2A1 (SULT2A1, Homo sapiens, UniProt Q06520)","substrate, HPLC",,"pH 7.0, 37 °C, together with: 200 µM PAPS",,Km,8.5 ± 1.8 µM
COc1cc(Nc2ncc(F)c(Nc3ccc4c(n3)NC(=O)C(C)(C)O4)n2)cc(OC)c1OC,"Serine/threonine-protein kinase Nek5 (NEK5, Homo sapiens, UniProt Q6P3R8)",KINOMEscan,,10 µM,,inhibition,98%
CN1CCN(c2cc(-c3ccncc3)c(-c3ccc4ccccc4c3)nn2)CC1,"Alpha-1B adrenergic receptor (ADRA1B, Homo sapiens, UniProt P35368)","agonist, FLIPR",,12.5 µM,,activation,-1.8%
CC[N+]1(C)CCN(c2ccc(Cl)cc2)CC1.[I-],"Nicotinic acetylcholine receptor alpha1/beta1/epsilon/delta (Mus musculus, UniProt P02716+P04756+P09690+P20782)","ion current, inhibitor, two-electrode voltage clamp",Xenopus oocytes,"30 µM, after co-application, unit not given, together with: ACh 30 µM",baseline: ACh alone,ACh response,0.507 ± 0.345
CC12CCC(CC1)C(C)(C)O2,"1,8-cineole 2-endo-monooxygenase (cinA, Citrobacter braakii, UniProt Q8VQF6, N242A)","NADPH consumption, substrate",,"200 µM, pH 7.8, room temperature, N242A variant, 50 mM Tris, together with: Fpr and Cdx",,kcat,1.33 ± 0.177 s⁻¹
CN(C(=O)n1cnc(-c2ccc[n+]([O-])c2)c1)C1CCCCC1,"C-C chemokine receptor type 1 (CCR1, Homo sapiens, UniProt P32246)","radioligand binding, inhibitor",,50 µM,,inhibition,0%
[2H]c1c([2H])c([C@]2([2H])CCCN2C(=O)C(C)(C)Oc2ccc3cn[nH]c3c2)c([2H])c([2H])c1C([2H])([2H])[2H],"Ephrin type-B receptor 2 (EPHB2, Homo sapiens, UniProt P29323)",KINOMEscan,,1 µM,baseline: DMSO control,remaining binding,100%
Nc1ncnc2c1ncn2[C@@H]1O[C@H](COP(=O)(O)CP(=O)(O)OP(=O)(O)O)[C@@H](O)[C@H]1O,"P2X purinoceptor 3 (P2RX3, Homo sapiens, UniProt P56373)","ion current, agonist, patch clamp",HEK293,1 µM,,current ratio Mg2+-bound over free,0.63 ± 0.065
COc1ccc(N2C(=O)N(c3c(C)cccc3Cl)Cc3cnc(Nc4ccc(C5CCN(C)CC5)cc4OC)nc32)nc1,"Discoidin domain-containing receptor 2 (DDR2, Homo sapiens, UniProt Q16832)",kinase activity,,0.5 µM,,inhibition,95%
CC[C@@H](C)[C@@H](NC(=O)[C@@H](Cc1ccc(O)cc1)NC(=O)[C@H]1CCCN1C(=O)[C@@H](CCCNC(=N)N)NC(=O)[C@H](N)Cc1c[nH]cn1)C(=O)N[C@H](C)C(=O)N[C@H](Cc1c[nH]cn1)C(=O)N[C@H](CCCNC(=N)N)C(=O)N[C@H](CCCCNC(=O)c1cccc(S(=O)(=O)F)c1)C(=O)N[C@H](Cc1ccc(O)cc1)C(=O)N[C@H](CO)C(=O)N[C@H](Cc1ccccc1)C(N)=O,"Transferrin receptor protein 1 (Tfrc, Mus musculus, UniProt Q62351)",flow cytometry,RAW264.7,"48 h, pH 6, replicate 2, unit not given",baseline: 0 h,surface TFRC expression,1.04
CCc1ccc(C(=O)CCl)cc1,UCHL1,"covalent, intact protein LC-MS",,12.5 µM,,labelling,13.7%
O=C(Nc1cnccc1Cl)N1CCN(Cc2ccc3c(c2)OC(F)(F)O3)CC1,"Prostaglandin E2 receptor EP2 subtype (PTGER2, Homo sapiens, UniProt P43116)","radioligand binding, inhibitor",,"50 µM, human, together with: [3H]prostaglandin E2",,inhibition,2%
Nc1ncnc2c1ncn2[C@@H]1O[C@H](COP(=O)(O)OP(=O)(O)OP(=O)(O)O)[C@@H](O)[C@H]1O,"cAMP-dependent protein kinase catalytic subunit alpha (PRKACA, Homo sapiens, UniProt P17612)","substrate, HPLC",,"15 min, pH 7.4, 25 °C, together with: 25 µM Rh-MAB-Kemptide",,Vmax,4.52 ± 0.33 µmol/min/mg
COc1cc(N)c(Cl)cc1C(=O)NC1CN2CCC1CC2 (stereo not shown),"12-(S)-hydroxy-5,8,10,14-eicosatetraenoic acid receptor (GPR31, Homo sapiens, UniProt O00270)","β-arrestin recruitment, TANGO luminescence, refers to: GPR31",,concentration not given,baseline: basal luminescence,log2 fold change,-0.135
CCn1cnc2c(Nc3cccc(Cl)c3)nc(N[C@H]3CCCC[C@H]3N)nc21,"Transient receptor potential cation channel subfamily M member 8 (TRPM8, Homo sapiens, UniProt Q7Z2W7)",antagonist,HEK293,5 µM,baseline: control,remaining activity,103 ± 1.87%
Cc1nn(C)cc1-c1nc2c(N3CCN(Cc4ccc(Cl)cc4)CC3)c(Cl)cnc2[nH]1,"Serine/threonine-protein kinase RIO1 (RIOK1, Homo sapiens, UniProt Q9BRS2)",KINOMEscan,,1 µM,baseline: DMSO control,remaining binding,9.2%
COc1cc(-c2[o+]c3cc(O)cc(O)c3cc2O[C@@H]2O[C@H](CO)[C@@H](O)[C@H](O)[C@H]2O)cc(OC)c1O,"Albumin (ALB, Homo sapiens, UniProt P02768)","binding, fluorescence quenching",,20 °C,,Gibbs free energy,-5.45 kcal/mol

# Excerpt of the above:
Compound,target,assay,system,conditions,how to read,measurement,result
CCc1ccc(C(=O)CCl)cc1,UCHL1,"covalent, intact protein LC-MS",,12.5 µM,,labelling,13.7%
O=C(Nc1cnccc1Cl)N1CCN(Cc2ccc3c(c2)OC(F)(F)O3)CC1,"Prostaglandin E2 receptor EP2 subtype (PTGER2, Homo sapiens, UniProt P43116)","radioligand binding, inhibitor",,"50 µM, human, together with: [3H]prostaglandin E2",,inhibition,2%
